Measurements from different studies.
Compare with care: the assays were run in different laboratories. “And” joins repeats or separate records; there may be more than shown. Numbers after ± are the reported error.
Spike glycoprotein: Spike glycoprotein (Severe acute respiratory syndrome coronavirus 2, UniProt P0DTC2)
rep main protease: Replicase polyprotein 1ab, main protease (rep, Severe acute respiratory syndrome coronavirus 2, UniProt P0DTD1)

CC(C)Oc1ccc(-c2ccn3cnc(-c4ccc(OC(C)C)cc4)c3c2)cc1  EC50 (vesicular stomatitis virus; viral entry, inhibitor; pseudotyped with Machupo virus glycoprotein): > 0.02 µM
Cc1ccc(C(=O)Oc2ccc(C(O)CNC(C)(C)C)cc2OC(=O)c2ccc(C)cc2)cc1 (stereo not drawn)  EC50 (SARS-CoV-2; viral replication, high-content imaging screen; cell-based): > 100 µM
NC(=O)c1nc(F)c[nH]c1=O  EC50 (Junin virus; viral replication, inhibitor; Vero, Candid #1): 4.4 ± 2.7 µM
Cc1cc2ncc(-c3ccc(OC(C)(C)C)cc3)n2cc1-c1ccc(OC(C)C)cc1  EC50 (vesicular stomatitis virus; viral entry, inhibitor; pseudotyped with Machupo virus glycoprotein): ≤ 0.004 µM
O=C(N1CCC2(CC1)CC(CNS(=O)(=O)CCCCCl)CCO2)C1(c2ccccc2)CCCC1 (stereo not drawn)  EC50 (Chikungunya virus; viral replication): ~1 µM
Cc1cc2nnn(-c3ccc(OC(C)C)cc3)c2cc1-c1ccc(OC(C)C)cc1  EC50 (vesicular stomatitis virus; viral entry, inhibitor; pseudotyped with Lassa virus glycoprotein): ≤ 0.004 µM
Nc1ncnc2c([C@@H]3N[C@H](CO)[C@@H](O)[C@H]3O)c[nH]c12  inhibition (Nipah henipavirus; viral replication; HeLa, Malaysia; 1.6 µM): 6.5%
NC(=O)c1ncn([C@@H]2O[C@H](CO)[C@@H](O)[C@H]2O)n1  EC50 (SARS coronavirus; FRhK-4; 72 h): 50 to 200 µg/mL
Cn1cnc(Cn2c(=O)[nH]/c(=N\c3cc4cn(C)nc4cc3Cl)n(Cc3cc(F)c(F)cc3F)c2=O)n1  patients with adverse event (human, mild renal impairment; oral, 375 mg, hypertriglyceridaemia TEAE, Severe severity): 0%
CCC(C)n1ncn(-c2ccc(N3CCN(c4ccc(OCC5COC(Cn6cncn6)(c6ccc(Cl)cc6Cl)O5)cc4)CC3)cc2)c1=O (stereo not drawn)  EC50 (PV2; viral replication; 72 h): 1.54 ± 0.02 µM
Cc1cc2ncn(-c3ccc(OC(C)C)cc3)c2cc1-c1ccc(OC(C)C)cc1  EC50 (vesicular stomatitis virus; viral entry, inhibitor; pseudotyped with Junin virus glycoprotein): ≤ 0.004 µM
O=c1ccn([C@@H]2O[C@](F)(CO)[C@@H](O)[C@H]2O)c(=O)[nH]1  EC50 (Mammarenavirus lujoense; viral replication): 0.29 to 2.65 µM
O=C(N1CCC2(CC1)C[C@H](CN1CCCCS1(=O)=O)CCO2)C1(c2ccccc2)CCCC1  EC50 (Influenza A virus H5N1; viral replication; MDCK): > 32 µM
Cc1cc2ncn(-c3ccc(OC(C)(C)C)cc3)c2cc1-c1ccc(OC(C)(C)O)cc1  EC50 (vesicular stomatitis virus; viral entry, inhibitor; pseudotyped with Lassa virus glycoprotein): ≤ 0.004 µM
CC(CN(C)C)CN1c2ccccc2CCc2ccccc21 (stereo not drawn)  EC50 (Severe acute respiratory syndrome coronavirus; pseudoparticle entry; Vero C1008; 48 h): 4.29 µM
CN(CC1CCOC2(CCN(C(=O)C3(c4ccccc4)CCCC3)CC2)C1)C(=O)c1ccccn1 (stereo not drawn)  EC50 (Venezuelan equine encephalitis virus; viral replication): > 39.8 µM
C=CC(=O)Nc1cc(Nc2nccc(-c3cn(C)c4ccccc34)n2)c(OC)cc1N(C)CCN(C)C  EC50 (SARS-CoV-2; viral replication, GFP plate reader screen; cell-based): > 100 µM
O=c1nc(NO)ccn1[C@@H]1O[C@H](CO)[C@@H](O)[C@H]1O  EC50 (SARS-CoV-2 Washington strain; viral replication, qRT-PCR; Caco-2): 1.7 ± 0.9 µM
Nc1cc2nc[nH]c2c(=O)[nH]1  EC50 (Junin virus; viral replication, inhibitor; Vero, Candid #1): 1.6 ± 1.5 µM
CS(=O)(=O)NCC1CCOC2(CCN(C(=O)C3(c4ccccc4)CCOCC3)CC2)C1 (stereo not drawn)  EC50 (Venezuelan equine encephalitis virus; viral replication): > 39.8 µM
O=C(O[C@@H]1Cc2c(O)cc(O)cc2O[C@@H]1c1cc(O)c(O)c(O)c1)c1cc(O)c(O)c(O)c1  Kd (Spike glycoprotein; binding, BLI): 11.5 µM
CN1CCCN(C(c2ccccc2)c2ccc(Cl)cc2)CC1 (stereo not drawn)  EC50 (SARS-CoV-2; viral replication, high-content imaging screen; cell-based): > 25.1 µM
COc1ccccc1NC(=O)NCC1CCOC2(CCN(C(=O)C3(c4ccccc4)CCCC3)CC2)C1 (stereo not drawn)  EC50 (Venezuelan equine encephalitis virus; viral replication): > 39.8 µM
OCc1cc(C(O)CNCCCCCCOCCCCc2ccccc2)ccc1O (stereo not drawn)  EC50 (SARS-CoV-2; viral replication, high-content imaging screen; cell-based): > 100 µM
CC(N)C12CC3CC(CC(C3)C1)C2 (stereo not drawn)  EC50 (SARS coronavirus; FRhK-4; 72 h): 32 µg/mL
Cn1cnc(Cn2c(=O)[nH]/c(=N\c3cc4cn(C)nc4cc3Cl)n(Cc3cc(F)c(F)cc3F)c2=O)n1  EC50 (murine hepatitis virus A59; viral replication, qRT-PCR; L929): 0.93 µM
CC(C)=CCc1c(O)ccc(C(=O)/C=C/c2ccc(O)cc2)c1O  Kd (Spike glycoprotein; binding, BLI): 8.8 µM
CCN(C)S(=O)(=O)NCC1CCOC2(CCN(C(=O)C3(c4ccccc4)CCCC3)CC2)C1 (stereo not drawn)  EC50 (Venezuelan equine encephalitis virus; viral replication): 31.6 µM
NC(=O)c1nc(F)c[nH]c1=O  EC50 (influenza A virus; viral replication; MA104, H7N9): 12 µM
O=C1/C(=C/c2ccc(Cl)c(Cl)c2)CNC/C1=C\c1ccc(Cl)c(Cl)c1  inhibition (rep main protease; viral replication, Gluc reporter; SARS-CoV-2; 20 µM): -1.58%
O=C(NCc1cccs1)C1CCCN(Cc2cccc(-c3ccc(F)cc3F)c2)C1 (stereo not drawn)  AC50 (SARS-CoV-2; cytopathic effect, cell-based CPE; USA_WA1/2020; round 1, 5-point dilution): 14.1 µM
O=C(c1cc2ccccc2n1Cc1ccccc1)N1CCCCC1  EC50 (Marburg virus; pseudovirus entry; A549): > 100 µM
O=C(N1CCC2(CC1)CC(CNCC(F)(F)F)CCO2)C1(c2ccccc2)CCCC1 (stereo not drawn)  EC50 (Venezuelan equine encephalitis virus; viral replication): > 39.8 µM
CCC(C(=O)Nc1sc(C(N)=O)c(C)c1C(=O)OC)c1ccc(F)cc1 (stereo not drawn)  EC50 (vaccinia virus; viral replication): ~10 µM
Nc1ccn(C[C@@H](CO)OCP(=O)(O)O)c(=O)n1  EC50 (Vaccinia virus; viral replication; HEL): 22 µM
CCOC(=O)[C@H]1O[C@@H]1C(=O)N[C@@H](CC(C)C)C(=O)NCCC(C)C  inhibition (rep main protease; reporter gene (mKate2), inhibitor; 20 µM): 1.96%
O=C(Nc1ccc(N2CCC3(CCC3)CC2)c(C(F)(F)F)c1)c1ccc(C(=O)N2C[C@H]3C[C@@H]2CO3)nc1  EC50 (Marburg virus Angola; viral replication; wild type): 1.92 ± 1.09 µM
Cc1cc(C)c2sc(NC(=O)c3cc4ccccc4o3)nc2n1  EC50 (Powassan virus; cytopathic effect, neutral red uptake; BHK-21, LB): > 32 µM
O=C(c1ccc(F)cc1)C1CCN(CCCn2c(=O)[nH]c3cc(Cl)ccc32)CC1  EC50 (SARS-CoV-2; viral replication, GFP plate reader screen; cell-based): > 100 µM
NC(=O)c1ncn([C@@H]2O[C@H](CO)[C@@H](O)[C@H]2O)n1  EC50 (influenza A virus; viral replication; A549, H5N1): 26 µM
N#Cc1c(Nc2ccc(F)cc2)n[nH]c1NS(=O)(=O)c1ccc2ccccc2c1  EC50 (Powassan virus; viral replication; BHK-21): > 25 µM
oseltamivir carboxylate  EC50 (Influenza A virus H1N1; viral replication, MTS): 5.6 µM
CCOC(=O)[C@H]1O[C@@H]1C(=O)N[C@@H](CC(C)C)C(=O)NCCC(C)C  EC50 (SARS-CoV-2 prototype; pseudovirus infection): 0.23 µM
O=C(NN1C(=O)C2C3C=CC(C4CC34)C2C1=O)c1ccc(C(F)(F)F)cc1 (stereo not drawn)  EC50 (Monkeypox virus; viral replication; Vero): 0.0012 ± 0.0006 µM
CNC(=O)[C@@H](NC(=O)[C@H](CC(C)C)[C@H](O)C(=O)NO)C(C)(C)C  remaining activity (Daboia russelii venom proteases (SVMP); protease activity, inhibitor; AP population; 1 µM, added: azocasein substrate; reference: venom alone): 77.8% and 72.3% and 74.9%
Cc1nc(Nc2ccc(F)cc2)nc(N2CCc3ccccc3C2C)c1C (stereo not drawn)  EC50 (SARS-CoV-2; viral replication, GFP plate reader screen; cell-based): > 100 µM
CN(C)C1CCN(C(=O)c2cc3ccccc3n2CC2CCCCC2)CC1  EC50 (Sudan ebolavirus; pseudovirus infection; A549): 0.771 ± 0.07 µM
NC(=O)c1nc(F)c[nH]c1=O  EC50 (Lassa virus; Huh-7): 1.7 ± 0.69 µM
C[C@@H](Oc1cc(-c2cnn(C3CCNCC3)c2)cnc1N)c1c(Cl)ccc(F)c1Cl  EC50 (SARS-CoV-2; viral replication, GFP plate reader screen; cell-based): 6.76 µM
CCCCCCCCCCCCCCCCOCCCOP(=O)(O)CO[C@H](CO)Cn1ccc(N)nc1=O  EC50 (Monkeypox virus; viral replication; HEL 299): 0.12 ± 0.07 µM
O=C(NCC1CCOC2(CCN(C(=O)C3(c4ccccc4)CCCC3)CC2)C1)c1cccnc1 (stereo not drawn)  EC50 (Venezuelan equine encephalitis virus; viral replication): 12.6 µM
c1ccc(CN(CCN(Cc2ccccn2)Cc2ccccn2)Cc2ccccn2)nc1  EC50 (SARS-CoV-2; viral replication, GFP plate reader screen; BetaCov/Belgium/GHB-03021/2020; cell-based): > 3.09 µM
CO[C@H]1/C=C/O[C@@]2(C)Oc3c(C)c(O)c4c(O)c(c(/C=N/N5CCN(C6CCCC6)CC5)c(O)c4c3C2=O)NC(=O)/C(C)=C\C=C\[C@H](C)[C@H](O)[C@@H](C)[C@@H](O)[C@@H](C)[C@H](OC(C)=O)[C@@H]1C  EC50 (Yellow fever virus; viral replication; Vero): 0.252 µM
CC[C@H](C)[C@H](NC(=O)[C@H](CC(C)C)NC(=O)[C@H](Cc1c[nH]c2ccccc12)NC(=O)[C@H](CCC(N)=O)NC(=O)[C@@H](NC(=O)[C@H](Cc1ccccc1)NC(=O)[C@H](C)NC(=O)[C@H](CCCCNC(=O)COCCOCCNC(=O)COCCOCCNC(=O)CC[C@H](NC(=O)CCCCCCCCCCCCCCCCCCC(=O)O)C(=O)O)NC(=O)[C@H](CCC(N)=O)NC(=O)[C@H](C)NC(=O)[C@@H](NC(=O)[C@H](CCCCN)NC(=O)[C@H](CC(=O)O)NC(=O)[C@H](CC(C)C)NC(=O)C(C)(C)NC(=O)[C@@H](NC(=O)[C@H](CO)NC(=O)[C@H](Cc1ccc(O)cc1)NC(=O)[C@H](CC(=O)O)NC(=O)[C@H](CO)NC(=O)[C@@H](NC(=O)[C@H](Cc1ccccc1)NC(=O)[C@@H](NC(=O)CNC(=O)[C@H](CCC(=O)O)NC(=O)C(C)(C)NC(=O)[C@@H](N)Cc1ccc(O)cc1)[C@@H](C)O)[C@@H](C)O)[C@@H](C)CC)[C@@H](C)CC)C(C)C)C(=O)N[C@@H](C)C(=O)NCC(=O)NCC(=O)N1CCC[C@H]1C(=O)N[C@@H](CO)C(=O)N[C@@H](CO)C(=O)NCC(=O)N[C@@H](C)C(=O)N1CCC[C@H]1C(=O)N1CCC[C@H]1C(=O)N1CCC[C@H]1C(=O)N[C@@H](CO)C(N)=O  subjects with adverse events (refers to: Rhinorrhoea; healthy subjects; 5/5/8/10 mg titrated, multiple ascending dose): 28.6%
CN(C)S(=O)(=O)NCC1CCOC2(CCN(C(=O)C3(c4ccccc4)CCCC3)CC2)C1 (stereo not drawn)  EC50 (Venezuelan equine encephalitis virus; viral replication): 7.94 µM
O=C1c2c(O)c(=O)ccn2N([C@@H]2c3ccccc3SCc3c2ccc(F)c3F)[C@@H]2COCCN12  EC50 (Influenza A virus; viral replication, plaque reduction; A(H5N8) A/gull/Delaware/486/2018; mean): 0.00021 ± 2e-05 µM
O=c1ccn([C@H]2[C@H](O)[C@H](O)[C@@H](CO)[C@H]2F)c(=O)[nH]1  EC50 (MERS-CoV; viral replication; Vero): > 100 µM

For quick reference, copied from above:
O=C1c2c(O)c(=O)ccn2N([C@@H]2c3ccccc3SCc3c2ccc(F)c3F)[C@@H]2COCCN12  EC50 (Influenza A virus; viral replication, plaque reduction; A(H5N8) A/gull/Delaware/486/2018; mean): 0.00021 ± 2e-05 µM
NC(=O)c1ncn([C@@H]2O[C@H](CO)[C@@H](O)[C@H]2O)n1  EC50 (SARS coronavirus; FRhK-4; 72 h): 50 to 200 µg/mL
C=CC(=O)Nc1cc(Nc2nccc(-c3cn(C)c4ccccc34)n2)c(OC)cc1N(C)CCN(C)C  EC50 (SARS-CoV-2; viral replication, GFP plate reader screen; cell-based): > 100 µM
CCOC(=O)[C@H]1O[C@@H]1C(=O)N[C@@H](CC(C)C)C(=O)NCCC(C)C  EC50 (SARS-CoV-2 prototype; pseudovirus infection): 0.23 µM
Cn1cnc(Cn2c(=O)[nH]/c(=N\c3cc4cn(C)nc4cc3Cl)n(Cc3cc(F)c(F)cc3F)c2=O)n1  patients with adverse event (human, mild renal impairment; oral, 375 mg, hypertriglyceridaemia TEAE, Severe severity): 0%
CCOC(=O)[C@H]1O[C@@H]1C(=O)N[C@@H](CC(C)C)C(=O)NCCC(C)C  inhibition (rep main protease; reporter gene (mKate2), inhibitor; 20 µM): 1.96%
CCC(C(=O)Nc1sc(C(N)=O)c(C)c1C(=O)OC)c1ccc(F)cc1 (stereo not drawn)  EC50 (vaccinia virus; viral replication): ~10 µM
